Assay results collected from several papers.
Parts stem from different laboratories: compare values within a part only. Positions count from the first letter of the parent shown.

Set 1 — technique: DHFR PCA, deep sequencing; sample: yeast; together with: (+)-ABA 0.39 µM; relative to: wild-type fitted maximum; direction: higher = stronger binding
Target: ABI1, truncated, D143A, DHFR fusion (Arabidopsis thaliana)
Setting: methotrexate growth selection, single substitutions
Parent: PYL1, truncated, DHFR fusion (Arabidopsis thaliana); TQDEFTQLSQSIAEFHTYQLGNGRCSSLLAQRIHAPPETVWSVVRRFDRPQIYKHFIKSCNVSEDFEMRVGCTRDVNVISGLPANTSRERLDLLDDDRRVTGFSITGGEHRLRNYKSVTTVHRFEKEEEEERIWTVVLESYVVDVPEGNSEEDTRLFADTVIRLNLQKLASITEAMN; partner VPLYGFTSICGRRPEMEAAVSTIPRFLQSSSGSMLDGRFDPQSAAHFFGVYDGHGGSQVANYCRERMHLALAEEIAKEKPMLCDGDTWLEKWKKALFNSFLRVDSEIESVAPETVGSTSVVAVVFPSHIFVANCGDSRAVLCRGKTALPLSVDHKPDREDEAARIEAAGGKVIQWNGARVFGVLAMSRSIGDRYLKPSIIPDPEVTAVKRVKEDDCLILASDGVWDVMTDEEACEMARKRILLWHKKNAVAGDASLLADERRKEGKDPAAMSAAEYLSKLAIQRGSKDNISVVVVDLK
Change | relative binding score [%]
M176S | 15.2
N77Y | 47.1
E147S | 21.6
I172F | -10.7
N149E | 34
N114Q | -12.5
L138A | -21.4
L112H | -23.2
V161R | -0.242
T120H | -2.19
Q2L | 66.1
L20C | 51.1
V145L | -16.5
T120M | -4.27
T39E | 17.7
N77C | 58.3
R24N | 12.5
E174S | -2.74

Set 2 — technique: universal PBM; form: double-stranded DNA, one strand shown; sample: in vitro; tested at: 600 nM; direction: higher = stronger binding
Target: Sal-like protein 4, full length isoform A (SALL4, Homo sapiens, UniProt Q9UJQ4, residues 1-1053)
Sequence of UniProt Q9UJQ4 (whole entry, looked up): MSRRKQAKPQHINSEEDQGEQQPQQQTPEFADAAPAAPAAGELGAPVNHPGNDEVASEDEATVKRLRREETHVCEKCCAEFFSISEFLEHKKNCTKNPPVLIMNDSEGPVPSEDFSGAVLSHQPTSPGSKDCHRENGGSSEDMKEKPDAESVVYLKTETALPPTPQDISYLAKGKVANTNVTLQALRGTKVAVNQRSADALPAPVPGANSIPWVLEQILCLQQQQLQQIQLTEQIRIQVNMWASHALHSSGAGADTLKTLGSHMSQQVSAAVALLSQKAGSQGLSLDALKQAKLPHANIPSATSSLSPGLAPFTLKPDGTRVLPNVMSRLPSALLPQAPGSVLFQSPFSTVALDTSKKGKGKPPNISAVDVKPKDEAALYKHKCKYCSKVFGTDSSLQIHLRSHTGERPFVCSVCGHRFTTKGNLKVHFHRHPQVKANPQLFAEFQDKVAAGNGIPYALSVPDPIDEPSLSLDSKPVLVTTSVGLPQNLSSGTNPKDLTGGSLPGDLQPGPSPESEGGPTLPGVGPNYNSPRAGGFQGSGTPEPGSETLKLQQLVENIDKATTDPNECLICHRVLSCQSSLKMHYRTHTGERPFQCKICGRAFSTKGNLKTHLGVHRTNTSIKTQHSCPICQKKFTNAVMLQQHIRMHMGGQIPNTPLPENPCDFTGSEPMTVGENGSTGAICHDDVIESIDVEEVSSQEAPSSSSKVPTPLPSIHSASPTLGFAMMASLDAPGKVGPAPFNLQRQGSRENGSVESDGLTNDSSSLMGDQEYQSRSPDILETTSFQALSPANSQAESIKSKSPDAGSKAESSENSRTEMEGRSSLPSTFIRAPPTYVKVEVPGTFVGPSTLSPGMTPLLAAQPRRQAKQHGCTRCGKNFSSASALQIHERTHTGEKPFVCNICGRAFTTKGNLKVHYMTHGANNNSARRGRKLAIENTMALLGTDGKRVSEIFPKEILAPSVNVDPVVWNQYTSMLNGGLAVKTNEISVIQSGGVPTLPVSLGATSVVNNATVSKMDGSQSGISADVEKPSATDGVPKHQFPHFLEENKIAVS
Setting: 8-mer, flanks averaged, mean of replicates
Oligonucleotide | E-score
AGCGCGGG | -0.274
AGACGCGC | -0.252
CGCTTTAC | 0.0401
CCTCCTCC | -0.286
ATAGCGAC | 0.0156
CTTAATAA | 0.317
GAAGGTAA | 0.163
AGGGCCAA | -0.167
GACACGAA | -0.168
CAGATCCC | -0.204
CTCTTCTC | -0.0293
AGGTACCG | -0.262
TGCTAGAA | -0.00907
CTGTCTCC | -0.189
CCCCGGTC | -0.37
AGGAATCA | 0.159
AGGGATCG | -0.174
GTCTTAAA | 0.0684
ACCGGACC | -0.338
TAGCCAAA | 0.169
CCTAGTAG | -0.0781
CCAGTGGG | -0.381
GGACTTAA | 0.011
GGGGATAC | -0.244
GTCGACGA | -0.211

Set 3 — technique: protein-binding microarray; form: double-stranded DNA, one strand shown; sample: in vitro; tested at: 940 nM top; setting: 60-bp whole probe; together with: salmon DNA 0.4 mg/ml; relative to: random background probes; direction: higher = stronger binding; constant ends, left off below: GCCTAGCAC … GTCTTGATTCGCTTGACGCTGCTG
Target: Interferon regulatory factor 5, full length, phosphomimetic (IRF5, Homo sapiens, UniProt Q13568-2, residues 1-514, S451D/S453D/S456D/S462D)
Oligonucleotide | fitted relative affinity [z-score]
TTAGGTATCGGGGTTCGGTTAGTGCTA | 4.49
GACGGACTGGTTCTCCTGACGTGCTAG | -0.28
TTAGGTATCGATTATCGGTTAGTGCTA | 9.54
GACGATATCAGTCTTGAGACGTGCTAG | -0.0945
TTAGGACTGCTACTGCTGTAGTGCTAG | -0.73
GACGGTATCGACTTTGGGGACGTGCTA | 3.92
TGCTGTCTCAGAGTCCTCTGGTGCTAG | 0.0616
GACGGTAGCGGTCTCGGGACGTGCTAG | 0.553
CTAGATATCGGGACTGGATTAGTGCTA | -0.224
AGACTTCTCCATTTTTCTAGGTGCTAG | 1.1
GACGTTATCGGGTATCGGGACGTGCTA | 1.04
TCACCCCTAGGGGGCAGTATGTGCTAG | 0.693
GACGGACTGGGGTTTCGGGAAGTGCTA | 1.83
GACGGTCCCCTTTTCCTGACGTGCTAG | 0.568
GACGATACCAGTCTCGAGACGTGCTAG | 2.13
TTAGATATCGGGACTAGATTAGTGCTA | 0.111
GGCATTTTCGGGTAGATGGCCGTGCTA | 2.62

Set 4 — target: CCNB2, cyclin fold, Cln2 fusion (human); technique: yeast growth competition, sequencing; sample: yeast; setting: weak parent motif; relative to: not given; direction: higher = stronger binding
Parent: E2F1 docking peptide (human); PPVKRRLDLETDH; partner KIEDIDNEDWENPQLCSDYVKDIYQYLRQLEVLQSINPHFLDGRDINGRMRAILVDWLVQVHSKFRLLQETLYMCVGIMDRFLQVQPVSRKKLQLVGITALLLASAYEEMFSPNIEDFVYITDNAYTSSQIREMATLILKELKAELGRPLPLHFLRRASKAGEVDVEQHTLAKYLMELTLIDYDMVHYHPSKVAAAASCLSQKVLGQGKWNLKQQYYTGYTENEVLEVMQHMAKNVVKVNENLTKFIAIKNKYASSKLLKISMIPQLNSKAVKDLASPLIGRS
Change | normalised enrichment score
PPVKRRLDLETDA [H13A] | 0.199
PPVKRTLDLETDH [R6T] | 0.246
PPVKRRLDLDTDH [E10D] | 1.14
PPVKRRLDLRTDH [E10R] | 0.294
PPVKARLDLETDH [R5A] | 0.326
PPVKRRKDLETDH [L7K] | 0.137
PPVKRRLDLEPDH [T11P] | 0.733
PPVKRRLDLETDQ [H13Q] | 0.139
PPVKRRLDLVTDH [E10V] | 0.18
PMVKRRLDLETDH [P2M] | -0.248
PPVKVRLDLETDH [R5V] | -0.375
PPVKRNLDLETDH [R6N] | -0.0626
PPVKRRLTLETDH [D8T] | 0.939
PPPKRRLDLETDH [V3P] | 0.616
PPVKRRLDLEDDH [T11D] | 0.378
PPVKRRLDLETEH [D12E] | 0.256
PPVKRRLPLETDH [D8P] | -0.00393
PPVKRHLDLETDH [R6H] | 0.361
PPVKRRLDLETRH [D12R] | 0.415

Set 5 — technique: RNAcompete; form: RNA; sample: in vitro; tested at: 20 nM; setting: 7-mer, probes averaged, single round; relative to: mean of 7-mers; direction: higher = stronger binding
Target: PABPC1L2, full length, GST fusion (mouse, UniProt A0ABA7IW68)
Construct (chain): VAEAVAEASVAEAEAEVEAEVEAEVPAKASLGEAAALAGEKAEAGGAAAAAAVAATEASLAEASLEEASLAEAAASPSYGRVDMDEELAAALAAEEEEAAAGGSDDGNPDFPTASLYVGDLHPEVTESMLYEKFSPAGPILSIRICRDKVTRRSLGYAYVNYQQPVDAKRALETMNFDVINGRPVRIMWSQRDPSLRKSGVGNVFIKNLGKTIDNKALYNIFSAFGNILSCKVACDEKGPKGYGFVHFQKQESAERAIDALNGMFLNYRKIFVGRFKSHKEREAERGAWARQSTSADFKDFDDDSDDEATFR
Oligonucleotide | 7-mer Z-score
ACGCAUA | -0.0482
GAGAGCC | -0.0844
AAGGUUU | -0.224
CGGCCUG | -0.394
UUCACUA | -0.229
CCGGCGC | -0.353
CCCCGUA | -0.365
CCUAGGA | 0.00436
AUCCAUA | -0.108
CUAUCUA | -0.206
AUCCUGG | -0.108
AUCACUC | -0.137
AAUGACG | 0.186
UUGAUAA | 0.109
GGUCUGA | -0.179
AGCGUGA | -0.151
ACCACCC | -0.224
AGUCCUC | -0.258
CUACCCU | -0.447

Set 6 — technique: aptamer microarray, sandwich; form: DNA with 2'F-ANA; sample: in vitro; tested at: 200 nM; together with: Cy3 exosite-II aptamer, 400 nM; direction: higher = stronger binding; oligonucleotide: GGTTGGTGTGGTTGG
Target: Prothrombin, mature alpha-thrombin (F2, Homo sapiens, UniProt P00734)
Setting: whole 15-mer aptamer, many near background
Modification | mean fluorescence intensity [a.u.]
2'F-ANA at 2 7 8 13 | 449
2'F-ANA at 1 2 3 5 6 8 10 14 15 | 110
2'F-ANA at 2 4 5 6 8 10 11 13 15 | 48.5
2'F-ANA at 4 6 7 8 13 14 | 96.4
2'F-ANA at 3 5 7 9 11 12 13 14 15 | 65
2'F-ANA at 1 4 6 7 9 10 12 13 14 | 60
2'F-ANA at 3 4 6 10 11 13 14 | 150
2'F-ANA at 7 12 15 | 929
2'F-ANA at 1 2 3 5 6 7 12 14 | 42.8
2'F-ANA at 1 5 8 12 14 | 45.6
2'F-ANA at 1 6 7 9 10 11 12 13 15 | 59.4
2'F-ANA at 8 9 12 15 | 835
2'F-ANA at 1 5 7 8 9 10 11 12 14 | 47.9
2'F-ANA at 1 12 13 14 | 69.7

Set 7 — technique: protein-binding microarray; form: double-stranded DNA, one strand shown; sample: in vitro; tested at: not given; direction: higher = stronger binding
Target: TATA-box-binding protein 1 (TBP1, Arabidopsis thaliana, UniProt P28147, residues 1-200, full length assumed)
Setting: k-mer, scored over probes, only values ≥0.25
Construct (chain): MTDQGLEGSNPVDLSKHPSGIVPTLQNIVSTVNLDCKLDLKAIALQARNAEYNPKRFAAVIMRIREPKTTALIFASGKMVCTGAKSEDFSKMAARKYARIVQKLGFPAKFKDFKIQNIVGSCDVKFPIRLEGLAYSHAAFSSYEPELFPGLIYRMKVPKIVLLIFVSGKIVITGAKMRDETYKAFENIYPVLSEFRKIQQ
Oligonucleotide | E-score
AATAAAT | 0.438
TAATAGA | 0.276
CGATTAA | 0.289
TAAATTA | 0.409
GCGTATA | 0.346
AAATAAG | 0.344
CTTTAAA | 0.41
GGTATTA | 0.263
GTATAAA | 0.466
GCTAATA | 0.284
AATAAGT | 0.264
ATTAATG | 0.345
TAAATCA | 0.351
GCTTTTA | 0.373
ATAATTG | 0.364
AGTATAC | 0.278

Mixed results
Substance | target | test | test system | setting | how to read | quantity | value
PhoQ, residues 284 288 289 292 302 303 SSTLLI | PhoP, residues 12 14 15 18 19 TPWLV (Escherichia coli, UniProt P23836) | Sort-seq, item: YFP reporter | E. coli | PhoQ-PhoP variant library, together with: 10 µM Mg2+ | relative to: high Mg2+ state, higher = stronger signaling | fold induction | 4.52

Repeated from above (set 3):
Oligonucleotide | fitted relative affinity [z-score]
CTAGATATCGGGACTGGATTAGTGCTA | -0.224
AGACTTCTCCATTTTTCTAGGTGCTAG | 1.1
GACGTTATCGGGTATCGGGACGTGCTA | 1.04
TCACCCCTAGGGGGCAGTATGTGCTAG | 0.693
GACGGACTGGGGTTTCGGGAAGTGCTA | 1.83
GACGGTCCCCTTTTCCTGACGTGCTAG | 0.568
GACGATACCAGTCTCGAGACGTGCTAG | 2.13
TTAGATATCGGGACTAGATTAGTGCTA | 0.111
